# Measurements gathered from unrelated publications.
# Parts stem from different laboratories: compare values within a part only. Positions count from the first letter of the parent shown.
# Sequence of UniProt Q9SKN5 (whole entry, looked up): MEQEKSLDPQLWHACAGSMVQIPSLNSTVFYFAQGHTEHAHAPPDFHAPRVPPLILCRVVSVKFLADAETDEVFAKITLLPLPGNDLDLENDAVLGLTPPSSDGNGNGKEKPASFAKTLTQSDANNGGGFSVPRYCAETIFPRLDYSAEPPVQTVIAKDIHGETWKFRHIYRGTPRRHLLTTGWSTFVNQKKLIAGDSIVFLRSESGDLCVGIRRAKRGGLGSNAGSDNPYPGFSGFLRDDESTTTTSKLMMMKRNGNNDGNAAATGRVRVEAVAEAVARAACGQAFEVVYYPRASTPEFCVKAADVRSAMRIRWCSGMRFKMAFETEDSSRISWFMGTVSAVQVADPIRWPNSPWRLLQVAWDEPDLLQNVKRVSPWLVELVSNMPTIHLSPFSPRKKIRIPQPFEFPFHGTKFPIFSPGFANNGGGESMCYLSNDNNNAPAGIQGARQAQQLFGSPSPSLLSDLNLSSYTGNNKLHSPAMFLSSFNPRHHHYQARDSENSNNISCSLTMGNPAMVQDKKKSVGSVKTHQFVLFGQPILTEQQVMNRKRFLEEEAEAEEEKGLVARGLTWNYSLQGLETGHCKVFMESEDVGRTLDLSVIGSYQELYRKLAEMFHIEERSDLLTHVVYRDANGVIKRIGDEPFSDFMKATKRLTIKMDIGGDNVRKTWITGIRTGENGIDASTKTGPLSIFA
# Sequence of UniProt Q9ZPY6 (whole entry, looked up): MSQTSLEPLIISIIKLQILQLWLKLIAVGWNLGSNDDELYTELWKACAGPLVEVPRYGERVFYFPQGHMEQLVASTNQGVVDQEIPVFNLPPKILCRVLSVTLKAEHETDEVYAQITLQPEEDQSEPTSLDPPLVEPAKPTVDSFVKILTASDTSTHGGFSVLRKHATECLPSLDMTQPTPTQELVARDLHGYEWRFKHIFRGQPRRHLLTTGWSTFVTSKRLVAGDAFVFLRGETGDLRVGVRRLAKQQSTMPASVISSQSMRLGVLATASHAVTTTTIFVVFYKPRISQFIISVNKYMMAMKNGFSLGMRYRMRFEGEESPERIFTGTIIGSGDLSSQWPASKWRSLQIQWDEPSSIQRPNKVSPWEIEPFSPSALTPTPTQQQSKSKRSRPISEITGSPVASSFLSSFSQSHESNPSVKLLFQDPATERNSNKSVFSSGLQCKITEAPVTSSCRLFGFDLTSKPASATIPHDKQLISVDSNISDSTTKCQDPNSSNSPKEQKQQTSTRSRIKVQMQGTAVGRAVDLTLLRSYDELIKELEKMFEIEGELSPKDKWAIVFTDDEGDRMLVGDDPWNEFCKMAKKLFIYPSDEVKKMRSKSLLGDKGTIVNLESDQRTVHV
# Sequence of UniProt Q9M1R4 (whole entry, looked up): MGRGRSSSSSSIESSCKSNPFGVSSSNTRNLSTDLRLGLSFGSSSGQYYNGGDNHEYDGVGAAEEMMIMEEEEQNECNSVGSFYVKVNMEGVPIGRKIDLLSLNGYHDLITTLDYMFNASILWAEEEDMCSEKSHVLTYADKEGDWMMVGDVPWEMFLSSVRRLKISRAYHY
# Sequence of UniProt Q8RYC8 (whole entry, looked up): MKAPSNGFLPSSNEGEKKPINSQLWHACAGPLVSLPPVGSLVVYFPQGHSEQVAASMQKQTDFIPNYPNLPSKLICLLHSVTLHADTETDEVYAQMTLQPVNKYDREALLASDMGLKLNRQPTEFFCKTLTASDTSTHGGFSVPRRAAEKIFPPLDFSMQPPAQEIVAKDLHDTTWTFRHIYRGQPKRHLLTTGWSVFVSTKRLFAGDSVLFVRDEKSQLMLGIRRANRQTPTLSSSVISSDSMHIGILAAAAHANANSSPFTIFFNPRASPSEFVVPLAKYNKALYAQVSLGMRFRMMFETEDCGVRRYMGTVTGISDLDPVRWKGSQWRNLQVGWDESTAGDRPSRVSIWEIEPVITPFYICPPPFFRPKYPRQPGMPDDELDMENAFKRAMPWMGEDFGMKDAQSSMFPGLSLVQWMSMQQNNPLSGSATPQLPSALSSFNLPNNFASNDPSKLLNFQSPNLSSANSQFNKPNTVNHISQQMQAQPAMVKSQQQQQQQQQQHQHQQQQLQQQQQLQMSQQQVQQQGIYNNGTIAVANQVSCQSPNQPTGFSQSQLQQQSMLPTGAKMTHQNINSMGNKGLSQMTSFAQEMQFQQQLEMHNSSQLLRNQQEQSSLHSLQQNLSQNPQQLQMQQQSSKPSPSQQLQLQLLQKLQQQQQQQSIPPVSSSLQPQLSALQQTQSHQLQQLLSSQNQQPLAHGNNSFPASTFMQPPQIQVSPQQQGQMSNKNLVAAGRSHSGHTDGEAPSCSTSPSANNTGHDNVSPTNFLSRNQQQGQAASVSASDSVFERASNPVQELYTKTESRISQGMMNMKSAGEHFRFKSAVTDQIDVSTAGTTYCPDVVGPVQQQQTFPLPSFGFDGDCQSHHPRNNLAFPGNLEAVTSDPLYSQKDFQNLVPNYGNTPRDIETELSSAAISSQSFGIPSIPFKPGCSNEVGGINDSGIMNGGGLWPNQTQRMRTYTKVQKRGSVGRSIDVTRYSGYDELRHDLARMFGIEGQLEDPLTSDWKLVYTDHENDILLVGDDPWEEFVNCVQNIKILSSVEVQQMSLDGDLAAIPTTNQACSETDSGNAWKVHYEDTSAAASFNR
# Sequence of UniProt Q8LAL2 (whole entry, looked up): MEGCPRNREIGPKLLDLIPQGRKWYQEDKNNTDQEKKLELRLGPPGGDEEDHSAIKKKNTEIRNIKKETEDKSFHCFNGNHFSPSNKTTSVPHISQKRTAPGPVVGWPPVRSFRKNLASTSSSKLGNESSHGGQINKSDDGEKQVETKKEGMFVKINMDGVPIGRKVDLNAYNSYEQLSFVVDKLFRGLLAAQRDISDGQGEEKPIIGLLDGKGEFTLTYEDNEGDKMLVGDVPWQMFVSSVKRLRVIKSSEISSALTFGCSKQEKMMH
# Sequence of UniProt Q9ZSY8 (whole entry, looked up): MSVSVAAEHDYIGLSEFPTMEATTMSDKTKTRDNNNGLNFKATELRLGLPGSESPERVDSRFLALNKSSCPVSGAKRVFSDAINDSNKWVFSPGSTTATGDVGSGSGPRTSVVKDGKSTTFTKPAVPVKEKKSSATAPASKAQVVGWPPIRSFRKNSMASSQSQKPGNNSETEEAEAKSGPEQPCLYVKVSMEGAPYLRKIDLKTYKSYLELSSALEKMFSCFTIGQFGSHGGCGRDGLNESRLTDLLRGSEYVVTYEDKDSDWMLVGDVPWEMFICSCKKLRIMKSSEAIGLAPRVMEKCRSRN

# Series 1 — target: CEBPE, bZIP domain (human); technique: DHFR protein complementation; medium: yeast; baseline: wild-type JUN-FOS pair; reading: higher = stronger binding
# Setting: single substitutions, most at no-binding floor
# Starting sequence: JUN, bZIP domain (human); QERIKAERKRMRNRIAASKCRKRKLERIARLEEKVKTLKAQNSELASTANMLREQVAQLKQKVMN; partner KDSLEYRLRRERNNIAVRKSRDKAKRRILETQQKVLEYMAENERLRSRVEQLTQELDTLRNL
Substitution,binding fitness [natural log]
M51G,-1.31
A57K,-1.04
L45F,-1.44
E44Y,-1.34
V35S,-1.37
T48M,-1.11
A57G,-1.28
R30Y,-1.16
A46E,-1
I28T,-1.31
T37A,-0.964
E32T,-1.35
K39E,-0.995
L59T,-1.43
L45T,-1.54
S47T,-1.05
A49Q,-1.33
A49S,-1.36
S43P,-1.51
K36F,-1.32
E32H,-1.39
E32P,-1.39
A46H,-1.13
K34H,-1.17
L38I,-1.33

# Series 2 — technique: RNA Bind-n-Seq; molecule type: RNA; medium: in vitro; concentration: 200 nM; setting: whole 134-nt RNA, ends assumed; with: 150 mM KCl; baseline: input library; reading: higher = stronger binding
# Target: Fragile X messenger ribonucleoprotein 1, C-terminal low-complexity region (Fmr1, Mus musculus, UniProt P35922)
Sequence,log2 enrichment
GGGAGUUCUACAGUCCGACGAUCCACAGACAACACGCACCCACACAGACACAGAGGGAAGGGGUUGGGAUGGGGACAGGGUGCACAGCAGGGCGGGGUAGGACCCCAGAAACUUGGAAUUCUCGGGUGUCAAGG,1.17
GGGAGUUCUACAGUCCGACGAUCCUCAAGUCCUGUGCUACACAUCGUAUGUACCGAAUCGGAAAAAGGUUUGGAGGAAAGUAUUAUGUUACGCCGUUCGGAUCUGCACUUCCAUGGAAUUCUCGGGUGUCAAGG,-0.486
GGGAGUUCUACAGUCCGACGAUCUGGCCAAUAGCAUCCUUUUCCAGUCUUCCGGUCUGACAAAUGGAAUAAUAGAAGAAAAGGACAUACAUGAAGAAUUGCCAAAACGGAAAGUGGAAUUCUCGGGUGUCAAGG,-0.624
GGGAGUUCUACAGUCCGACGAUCAAGUCCUGUGCUACACAUCGUAUGUACCGAAUCGGCCCCGGCCCCGGGGCCCCGGGGAAAGUAUUAUGUUACGCCGUUCGGAUCUGCACUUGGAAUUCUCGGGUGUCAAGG,-0.841
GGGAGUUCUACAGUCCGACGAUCUAACUUUAGAGGAGGAUCUGAUGGAUAUGGCAGCGGACGUGGAUUUGGGGAUGGCUAUAAUGGGUAUGGAGGAGGACCUGGAGGUGGCAAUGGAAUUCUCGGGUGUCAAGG,0.234
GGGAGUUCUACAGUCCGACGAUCUCCUGUGCUACACAUCGUAUGUACCGAAUCGGGAAAAAGGGAAAAAGGGUUUUUUUGGGAAAGUAUUAUGUUACGCCGUUCGGAUCUGCAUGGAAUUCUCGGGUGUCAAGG,-0.326
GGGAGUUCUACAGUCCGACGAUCCCUGUGCUACACAUCGUAUGUACCGAAUCGGGCCCCCCCGGCCCCCCCGGGCCCCCCCGGGAAAGUAUUAUGUUACGCCGUUCGGAUCUGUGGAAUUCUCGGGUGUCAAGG,-0.596
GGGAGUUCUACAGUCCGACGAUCAAGUCCUGUGCUACACAUCGUAUGUACCGAAUCGGCCCCGGGCCCCGGGCCCCGGGGAAAGUAUUAUGUUACGCCGUUCGGAUCUGCACUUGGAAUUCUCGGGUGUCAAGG,-0.731
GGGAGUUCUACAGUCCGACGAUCAGUCCUGUGCUACACAUCGUAUGUACCGAAUCGGUUUUGGGUUUUGGGGUUUUGGGGAAAGUAUUAUGUUACGCCGUUCGGAUCUGCACUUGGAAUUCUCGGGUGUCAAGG,-0.0768

# Series 3 — target: CCNA2, cyclin fold, Cln2 fusion (human); technique: yeast growth competition, sequencing; medium: yeast; setting: strong parent motif; baseline: not given; reading: higher = stronger binding
# Starting sequence: CABLES2 docking peptide (human); ICAKRSLCAAFSV; partner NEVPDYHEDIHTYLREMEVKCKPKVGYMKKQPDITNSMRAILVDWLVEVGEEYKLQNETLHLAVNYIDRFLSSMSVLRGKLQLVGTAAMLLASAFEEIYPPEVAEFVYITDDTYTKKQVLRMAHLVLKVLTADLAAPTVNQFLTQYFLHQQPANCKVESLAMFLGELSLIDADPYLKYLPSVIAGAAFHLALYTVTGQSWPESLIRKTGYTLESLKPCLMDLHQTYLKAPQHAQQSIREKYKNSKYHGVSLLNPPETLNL
Substitution,normalised enrichment score
C2A,2.01
F11A,0.46
S6A,1.48
R5A,0.191
L7A,0.174

# Series 4 — Sequence: B1 (IAA15); technique: two-hybrid; reading: higher = firmer interaction
# B1: IAA15 (Arabidopsis thaliana, UniProt Q9C966); chain MSPEEYVRVWPDSGDLGGTELTLALPGTPTNASEGPKKFGNKRRFLETVDLKLGEAHENNYISSMVTNDQLVGWPPVATARKTVRRKYVKVALDGAAYLRKVDLGMYDCYGQLFTALENMFQGIITICRVTELERKGEFVATYEDKDGDLMLVGDVPWMMFVESCKRMRLMKTGDAIGL
partner,setting,scale,positive tests
"IAA30 (Arabidopsis thaliana, UniProt Q9M1R4)",weak activation fusion,baseline: out of 4 tests,3
"ARF10 575-693 (Arabidopsis thaliana, UniProt Q9SKN5)",,baseline: out of 2 tests,0
"IAA27 (Arabidopsis thaliana, UniProt Q9ZSY8)",,baseline: out of 2 tests,0
"IAA26 (Arabidopsis thaliana, UniProt Q8LAL2)",,baseline: out of 2 tests,0
"ARF19 948-1086 (Arabidopsis thaliana, UniProt Q8RYC8)",,baseline: out of 2 tests,2
"ARF11 500-622 (Arabidopsis thaliana, UniProt Q9ZPY6)",,baseline: out of 2 tests,0

# Series 5 — technique: protein binding microarray; molecule type: double-stranded DNA, one strand shown; medium: in vitro; concentration: not given; baseline: not given; reading: higher = stronger binding
# Target: Histone acetyltransferase KAT6A, winged helix 2, GST fusion (KAT6A, Homo sapiens, UniProt Q92794, residues 85-181)
# Setting: 8-mer, flanks averaged, mean of 2 arrays, mostly near background
# Target sequence (chain): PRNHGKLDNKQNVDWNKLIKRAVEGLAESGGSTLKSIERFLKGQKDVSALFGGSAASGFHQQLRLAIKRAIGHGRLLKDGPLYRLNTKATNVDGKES
Sequence,E-score
CGGGGTAC,0.0702
CGCTGTAG,-0.0994
CTACATAG,-0.0302
ATACACCG,0.113
AGAGGACT,-0.201
CTTTAGCC,0.156
CAGGAGAC,0.00434
ACTTAGCG,-0.059
TATTGGGA,-0.065
CGTACAAG,-0.107
GATTAGCA,0.0739
ATACTGAC,0.0351
CACAGTGC,0.0341
CACGCAAA,0.0003
GTCCAGAA,-0.0638
ATGTGGCG,0.0224
TAAACGTA,-0.147
GAAAGGTA,-0.0569
CAGATGTA,-0.184
CGGAACGC,0.146
ACTGATAC,-0.0517
ATAGGGGA,-0.157
CACCTAAC,-0.0506
AATCTAGT,0.105
CTGGAACC,-0.0852

# A few entries again (series 1):
Substitution,binding fitness [natural log]
A57G,-1.28
R30Y,-1.16
A46E,-1
I28T,-1.31
T37A,-0.964
E32T,-1.35
K39E,-0.995
